Measured values of several laboratories.
“And” joins repeats or separate records; there may be more than shown. ± marks the error that the study gave. Converted amounts (≈) assume the structure as drawn.

`CC(=O)NCCCCN`: “log2 fold change” -0.0619 (binding, MIDAS equilibrium dialysis LC-MS; A2AR-BRIL thermostabilized; concentration not given; relative to: no-protein control).
With `Nc1nc(-c2ccccc2)nc2[nH]nc(Nc3ccc(C(F)(F)F)cc3)c12` the clinical score was 0 (coxsackievirus B3; NMRI mouse, CVB3 chronic myocarditis; oral, 100 mg/kg twice daily, day 1-7, day 0; direction not given).
`CC/N=C(\c1ccc(OC)c(OC)c1)N1CCCc2cc(C3=NNC(=O)SC3C)ccc21` (stereo not drawn) has a parasite growth of 38.4% (Plasmodium falciparum; nanoluciferase readout; 3D7 Hyp1-Nluc; 2 µM, 72 h; relative to: DMSO).
Under “anti-leishmanial effect difference”, `C[C@@H]1[C@H](O)[C@@H](C)/C=C/C=C/C=C/C=C/C=C/C=C/C=C/[C@H](O[C@@H]2O[C@H](C)[C@@H](O)[C@H](N)[C@@H]2O)C[C@@H]2O[C@](O)(C[C@@H](O)C[C@@H](O)[C@H](O)CC[C@@H](O)C[C@@H](O)CC(=O)O[C@H]1C)C[C@H](O)[C@H]2C(=O)O` is recorded as 18.6 (Leishmania major; promastigotes; 24 h, unit not given; relative to: compound minus Glu).
For `CC1(C)c2nc(-c3ccc(F)cc3)c(Nc3ccc(F)cc3)n2CCN1C(=O)CN`, the EC20 was 17.9 nM (Plasmodium berghei; parasite growth, luciferase bioluminescence; HepG2 spheroids infected; 24 h).
`CCc1nn(C)c2nc(-c3ccc(C(=O)O)cc3)nc(NCc3ccc(F)cc3)c12` gave a parasite number of 37.8% and 52.1% and 43.2% and 37.4% (Cryptosporidium parvum; HCT-8; EC50, 48 h; relative to: DMSO control).
The MIC50 of `CC(=O)NC[C@H]1CN(c2ccc(N3CCOCC3)c(F)c2)C(=O)O1` is reported as 1 µg/mL (≈ 2.96 µM) (Staphylococcus aureus; MRSA, 10 isolates; serum 0%).
The fluorescein ingestion of `COc1c(-c2coc3cc4c(cc3c2=O)CC(O)C(C)(C)O4)ccc2c1C=CC(C)(C)O2` (stereo not drawn) is reported as -26.4% (Drosophila melanogaster; fluorescence; liquid food, 40 µg/mL, first instar larvae; relative to: solvent).
`CNS(=O)(=O)c1ccccc1Nc1nc(Nc2cc(OC)c(OC)cc2C)ncc1Br` has an inhibition of 78.9% (Plasmodium falciparum; invasion and early ring development; Hyp1-Nluc; 10 x growth EC50, 4 h).
With `C[n+]1cc2c3c(ccc2c2ccc4cc5c(cc4c21)OCO5)OCO3` the fluorescein ingestion was -15.1% (Drosophila melanogaster; fluorescence; liquid food, 40 µg/mL, first instar larvae; relative to: solvent).
With `COc1ccc(C[C@H](NC(=O)[C@H](C)NC(=O)CN2CCOCC2)C(=O)N[C@@H](Cc2ccccc2)C(=O)C2(C)CO2)cc1` (stereo in doubt) the parasitaemia suppression was > 97% and > 95% (Plasmodium berghei; ANKA, BALB/c mouse, infected; dose not given, 4-day test, 4 days treatment, day 6 post infection).
With `CCONC(=O)N1CCC[C@H](C(=O)NCc2nc(-c3ccc(C#N)cc3)cs2)C1` the EC50 was 14 ± 2.6 nM (Plasmodium falciparum; SYBR Green growth; asexual blood-stage parasites, 3D7; 72 h).
`N=C(N)c1ccc(OCc2cc(COc3ccc(C(=N)N)cc3)cc(-c3ccccc3)c2)cc1`: “MIC of compound in combination” 6.25 µg/mL (Escherichia coli; checkerboard; BW25113; concentration not given, lowest-FICI combination, added: erythromycin).
Under IC50, `CC(C)=CCC/C(C)=C/CNCCNC1C2CC3CC(C2)CC1C3` (stereo not drawn) is recorded as “no effect” (Mycolicibacterium smegmatis; cell growth).
`CC(C)n1ncc2c(C(=O)NCC3(C)CNC3)cc(C3CC3)nc21` has a cell protection of 86.3% and 87.8% (coxsackievirus A16; RD; 1.5 µM).
For `COc1cc(OC)c(CCNC(=O)c2cn3cc(-c4cc(OCC(=O)O)ccc4OC)nc3s2)c(OC)c1`, the inhibition was 97.5% (Plasmodium falciparum; invasion and early ring development; Hyp1-Nluc; 10 x growth EC50, 4 h).
`Cc1cc(OC(C)C)ccc1C(=O)C(C)(C)NC(=O)c1sccc1C` has an EC50 of 0.03 µg/mL (Sclerotinia minor; mycelial growth; PSA medium; 20 °C).
With `O=C(Nc1ccc(CNc2ncnc3ccccc23)cc1)c1ccc(Cl)c(F)c1` the inhibition was 77.7% (Plasmodium falciparum; schizont egress, Nluc release; Hyp1-Nluc; 10 x growth EC50, 4 h).
`Nc1nc2c(ncn2[C@H]2C[C@H](O)[C@@H](CO)O2)c(=O)[nH]1`: “log2 fold change” 0.142 (binding, MIDAS equilibrium dialysis LC-MS; A2AR-BRIL thermostabilized; concentration not given; relative to: no-protein control).
For `O=c1c(-c2cc(O)c(O)c(O)c2)coc2cc(O)c(O)c(O)c12`, the fluorescein ingestion was -20.3% (Drosophila melanogaster; fluorescence; liquid food, 40 µg/mL, first instar larvae; relative to: solvent).
`C#CCOC(=O)ON=C1C=CC(=C(C#N)c2ccccc2)C=C1` gave an MFC of 64 µg/mL (≈ 210 µM) (Clavispora lusitaniae; broth dilution; ATCC 34449; 48 h, 37 °C).

For quick reference, copied from above:
`Cc1cc(OC(C)C)ccc1C(=O)C(C)(C)NC(=O)c1sccc1C` has an EC50 of 0.03 µg/mL (Sclerotinia minor; mycelial growth; PSA medium; 20 °C).
With `O=C(Nc1ccc(CNc2ncnc3ccccc23)cc1)c1ccc(Cl)c(F)c1` the inhibition was 77.7% (Plasmodium falciparum; schizont egress, Nluc release; Hyp1-Nluc; 10 x growth EC50, 4 h).
`Nc1nc2c(ncn2[C@H]2C[C@H](O)[C@@H](CO)O2)c(=O)[nH]1`: “log2 fold change” 0.142 (binding, MIDAS equilibrium dialysis LC-MS; A2AR-BRIL thermostabilized; concentration not given; relative to: no-protein control).
